# Measurements from different studies.
# Numbered parts are unrelated; each lists some results of a single study.

# Block 1
# Target: RING finger protein unkempt homolog, zinc fingers 1-6, SBP tag (UNK, Homo sapiens, UniProt Q9C0B0, residues 30-357)
# Sequence of UniProt Q9C0B0 (30-357, looked up): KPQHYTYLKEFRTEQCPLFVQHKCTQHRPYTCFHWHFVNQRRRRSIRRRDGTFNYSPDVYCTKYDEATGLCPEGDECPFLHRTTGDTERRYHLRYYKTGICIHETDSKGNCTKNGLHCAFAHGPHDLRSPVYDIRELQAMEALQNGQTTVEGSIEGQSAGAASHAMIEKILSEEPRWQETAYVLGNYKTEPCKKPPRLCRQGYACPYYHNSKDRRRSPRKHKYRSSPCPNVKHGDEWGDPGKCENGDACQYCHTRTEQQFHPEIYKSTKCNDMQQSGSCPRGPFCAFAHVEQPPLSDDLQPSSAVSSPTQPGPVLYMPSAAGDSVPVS
# Method: RNA Bind-n-Seq
# Molecule type: RNA
# Medium: in vitro
# Concentration: 100 nM
# Setting: RNA with constant flanks, vertebrate orthologous sites, ends assumed
# Reference: input RNA pool
# Direction: higher = stronger binding
Sequence,bound/input enrichment [ratio]
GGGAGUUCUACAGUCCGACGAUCGAUUAGUGUCAUACCAGCAUAUUAACCUCUCGUCUGUGCACAGCUUCAAAUGUUACCGUCUAGUUAGAUUUUUAUUUAAAAUAUGAAAAACCGCUUUUCCCAAGACUUUUUUAAAAACAACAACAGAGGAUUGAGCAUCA,2.52
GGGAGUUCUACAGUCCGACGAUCAGUAGUUUUAAGCUUGUUUGCACAGUUCUUUUUUUCCAUUGGAAAUGGAAUCCAUUGCCUUAGGUCUUUUUAAAUAGUGUAUUAUUAUCGUUGGGGCUGGCUCAAUGCUUGAAAACCAGUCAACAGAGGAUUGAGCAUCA,3.19
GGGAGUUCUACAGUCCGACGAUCAGUCUAGGUGGGGGUAAGCAUUGACUUCUAAAGAAAGAGAUGAAAUGCUAAAAAUCACACUAGGACCAACUUUAGUUGGAGAAUUCGAAUACACCUCUUUUACAGAAUUCUAAAAUUAAACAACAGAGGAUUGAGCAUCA,0.376
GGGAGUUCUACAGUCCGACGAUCCCGAAAGGCCAAAUUCCCUCCUCCCUUCUACUGCUUCUACCAACUGGAAGCACAGAAAACUAGAAUUUCAUUUAUUUUGUUUUUAAAAAAUAUAUGUUGAUUUCUUGUAACAUCCAAUAGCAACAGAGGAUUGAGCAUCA,0.461
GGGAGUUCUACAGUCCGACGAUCGCAUGCACAUGCCGCUGUCACCAAAAGCAAACAUGGUCUUCAAAAUCUCCAAUAGCGUUUUUAGUAUUCUCUCCCUCCUUCCCUUCUGUUCACCCAAUGCUUUAAAUGAUUAGAAGUCCUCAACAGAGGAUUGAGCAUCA,2.73
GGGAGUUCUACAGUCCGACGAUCCUGUUGUUAAGCACUGUGUUCCAGACUGUGUCUGACUUUAGUGUAACCUAGGAGAUUUUAUAGUUUUAUUUUAAUGAAAUCCUGCUUGAUGCAGAGCAGCGGGGAGAGCAGCGUCCAUGUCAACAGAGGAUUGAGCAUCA,3.2
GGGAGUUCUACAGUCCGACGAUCGGGUCGGGCUCCUUGGGGAGCUGCUGGCCACUUGGCGGCACCUGACUUAGGACAGUGACGUGAUAGGUAGGCUUGUGGUUUUUUAAUUUAAUGACAUUAAGACUUAAUCCACUAAAAUUUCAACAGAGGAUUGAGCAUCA,0.488
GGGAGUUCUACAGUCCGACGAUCUUACAGUCAUUGAUGGACUCUAUUUUUUUAUUAUUACUUGGACCUUGGUCGUUUUUAUACUAGCAAAAUGUCUUGUUUUACUUUUGUGUUUUUUGGGGGGGGAGGGAGUGAACUUGCUGACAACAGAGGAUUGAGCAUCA,2.47
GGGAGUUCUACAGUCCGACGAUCAGUCAUGGAGAAGAAGAUACUAAAGAUAAUCUCAUGGCACUGAUAUUAAUUUAUUUUUAUUAGUUUUACAAAAGUUAGGGUUCUUGUUUAUAAACAGCAGGUACUGACUAUUAAGGCAAACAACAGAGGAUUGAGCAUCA,0.364
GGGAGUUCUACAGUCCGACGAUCGCAAUGAAAAAGCAGCCCUUCUCCCAGCCCCCUUUUCACUAGGAGAUGCAAACGUUACCAUAGAAGAGCAAUUAAACUCAAUAAAUUUAUCUUUUCAGGAUGAUCCAGACUCCAGUACCACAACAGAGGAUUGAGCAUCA,1.06
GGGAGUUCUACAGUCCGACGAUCAAUAAGCUCUAGUUCUUAAGAUCCAACACUCCUAAAAGAGUUAGGAAGAAAAUAAAAGUUUACAACAUAACCUAGUCUUGUGCUAGAAUACUUUUUUAAAAAGUAUUUUUGAAUAUCAUUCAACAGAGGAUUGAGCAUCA,0.109

# Block 2
# Target: Prothrombin, mature alpha-thrombin (F2, Homo sapiens, UniProt P00734)
# Method: aptamer microarray, sandwich
# Molecule type: DNA with 2'F-ANA
# Medium: in vitro
# Concentration: 200 nM
# Setting: whole 15-mer aptamer, many near background
# Together with: Cy3 exosite-II aptamer, 400 nM
# Direction: higher = stronger binding
# Sequence: GGTTGGTGTGGTTGG
Modification,mean fluorescence intensity
2'F-ANA at 1 2 4 6 7 9 10 11 12 14,61 a.u.
2'F-ANA at 2 4 6 8 12 15,520 a.u.
2'F-ANA at 3 6 7 8 9 11 12 13,1090 a.u.
2'F-ANA at 1 2 4 5 7 8 11 15,52.8 a.u.
2'F-ANA at 2 3 5 6 7 9 11 13 15,66.9 a.u.
2'F-ANA at 5 8 10 11 12 13 14,57.4 a.u.
2'F-ANA at 3 11 12,1430 a.u.
2'F-ANA at 2 5 7 8 10 14,48 a.u.
2'F-ANA at 1 3 4 6 8 9 10 12,87.8 a.u.
2'F-ANA at 2 4 7 8 9 10 11 13,97 a.u.
2'F-ANA at 1 2 3 5 8 10 14,50.6 a.u.
2'F-ANA at 1 2 5 9 15,64.1 a.u.
2'F-ANA at 2 6 7 8 11 12 13 15,498 a.u.
2'F-ANA at 1 3 7 8 9 12,614 a.u.
2'F-ANA at 3 8 11 13 15,785 a.u.
2'F-ANA at 1 2 5 7 8 9 10 12 13,47.8 a.u.
2'F-ANA at 1 2 4 5 9 13 15,48.3 a.u.
2'F-ANA at 3 5 6 7 10 12 14 15,53.2 a.u.
2'F-ANA at 1 2 4 5 7 8 12 14,51.6 a.u.
2'F-ANA at 1 2 3 4 7 11 12 13 14 15,72.1 a.u.
2'F-ANA at 1 10 12 13 15,75.8 a.u.
2'F-ANA at 2 3 5 6 8 10 11 12 13,54.4 a.u.
2'F-ANA at 5 6 7 8 9 11 12 13 14,47.1 a.u.

# Block 3
# Target: Histone acetyltransferase KAT6A, both winged helices, GST fusion (KAT6A, Homo sapiens, UniProt Q92794, residues 1-181)
# Method: protein binding microarray
# Molecule type: double-stranded DNA, one strand shown
# Medium: in vitro
# Concentration: not given
# Setting: 8-mer, flanks averaged, mean of 2 arrays, mostly near background
# Reference: not given
# Direction: higher = stronger binding
# Target sequence (chain): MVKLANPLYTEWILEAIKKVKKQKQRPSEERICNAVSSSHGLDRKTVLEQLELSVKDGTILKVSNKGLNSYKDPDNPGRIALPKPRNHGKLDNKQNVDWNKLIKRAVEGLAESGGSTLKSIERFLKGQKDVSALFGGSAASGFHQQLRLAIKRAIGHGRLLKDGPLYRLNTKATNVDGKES
Sequence,E-score
CGGAGTCC,0.0218
GCCGTAGC,0.303
CGGCATAA,0.278
ACGCTTTA,0.0629
ACCTCCAT,-0.0994
AGTTCATA,-0.197
ATTATAGG,-0.0429
CTGGAAGA,-0.0871
CACCGTCA,0.234
CGGACTAA,0.17
ACGAAGGC,-0.109
CCTAGAGA,-0.142
GACAGTGC,0.0148
TAGCACTA,-0.194
TAATCGCA,0.0914
AGTACGGC,0.303
AAGGGGTG,-0.124
AACTGTTC,-0.00375
GTCTCCGA,0.118
CGGCCCCC,0.0873
ATCTTCGA,-0.00796
CAAATTAG,-0.048
ACAACGGA,0.148
CCCTTACG,0.0138
CAATGGTA,-0.0343

# Block 4
# Target: RNA binding protein fox-1 homolog 2, RRM domain, GST-SBP tag (RBFOX2, Homo sapiens, UniProt O43251-10, residues 100-194)
# Method: RNA Bind-n-Seq
# Molecule type: RNA
# Medium: in vitro
# Concentration: 365 nM
# Setting: natural RNA segment, single round, ends assumed
# Reference: no-protein control
# Direction: higher = stronger binding
# Construct (chain): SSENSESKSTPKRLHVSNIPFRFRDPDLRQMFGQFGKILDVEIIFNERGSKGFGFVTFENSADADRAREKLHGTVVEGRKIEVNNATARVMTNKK
Sequence,RBNS enrichment (R)
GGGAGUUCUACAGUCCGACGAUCAAGUCUGAGAGACAGAGUUACUUAGACAAAUGACACUGAAGCAGAUUAGAAGCUAGUAUCACCCAUUGGGAUUGGCAAUGCCUUCAAAGGCUCCUAGUCAAAUGAUCCAAUGGAAUUCUCGGGUGCCAA,0.498
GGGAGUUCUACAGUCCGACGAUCUCAACUUUAAUCAAGUUGUAACUUAUAUUGAAGACAAUUUGAUACAUAAUAAAAAAUUAUGACAAUGUCCUGGACUGGUUUUUGUUUUGUUUAAUUAUUUUGAGAGCUAUUGGAAUUCUCGGGUGCCAA,1.33
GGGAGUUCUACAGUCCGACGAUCGAUGAUUACUACAGCAAAAGCAGCUAACGUUUUACUUUGUAUCUUGUGUCCUCAGAAUUAAGAACUGGUGUUUGUAAUAAAUCAAAGCAUGCUUAUGUCAGAAUGUGUGGUGGAAUUCUCGGGUGCCAA,16.8
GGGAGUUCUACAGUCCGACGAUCUCCAUUAUCUUUUUGGACACAGUGAAUAUGUUUUUUAGCUAAAAAUGUCCUUGGAAACAUAAAUGCCUGCCAAUAACAUGGAAUAUUGAAUUCGGGCAAUGUGAAUUGAUUGGAAUUCUCGGGUGCCAA,0.687
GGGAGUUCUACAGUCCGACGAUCAUAUGCAGUGUUAGCCGAAUUAGAUUUACAAGACAAUCUAAGCUUUCCGGAUAAUUUUAUAUAUCAAACAUACAGGAUGGAUACAUAGUUGGCAACAGUCUACCUUAUUUUGGAAUUCUCGGGUGCCAA,0.39
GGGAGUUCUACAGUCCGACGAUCUUUAAUAUUUCUCCAAAUGAGGUUUAAAUAUACUAUAGCUACUGUUUUUAAUUUAAAGGUUAAACUUGAAGAAAGUCUUUAUUCACGGUGCCAAAAUUCAUUUUUCUAACUGGAAUUCUCGGGUGCCAA,0.675
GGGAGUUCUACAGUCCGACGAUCUUAGAGUCCUGGAGUGACCACAGCCCCUGCCCCCUGUCCCUGAGAGGUACAAGAGCCUGUUUACCUCAUAGAGUGUUUGGGCUCGGAAGUAAAAGUGAAGUUAUUUUGAAUGGAAUUCUCGGGUGCCAA,0.43
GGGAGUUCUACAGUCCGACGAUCCCUGGUUCUCAUAUAUGCUGUGUAGACAAUGUUCUACAGUUAUGGCAAUAAAGAUAGAUUACAUCGCAGAUCACUGGCUUCCGCUGUCUCUUUGGCUUAUAUUCCCCUAGUGGAAUUCUCGGGUGCCAA,0.315
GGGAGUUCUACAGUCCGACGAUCAGGGCCAGCGUCACCAGACCAGCUGCGGGACAAACCACUCAGACUGCUUGUAGGACAAAUACUUCUGACAUUUUCGUUUAAGCAAAUACAGGUGCAUUUAAAACACGACUUGGAAUUCUCGGGUGCCAA,0.561
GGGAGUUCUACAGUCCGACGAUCGUGGGAAAUUAAGAUUACAGAUGCUUUGGGCCCCCUCAAACAGUACAUUGCUACAGUUCACUGUAGCAACAGAUUUGGUGGUGAUGGGGGGAUAGAGGUAGAAGCAGAUAUGGAAUUCUCGGGUGCCAA,0.507
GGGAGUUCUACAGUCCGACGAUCCACCCCAAGGUGACCAGCCAUGGCCUGUCAUACUUAGGAGAGCAAGCUUUUUGCGGGUACAGAGCAGGCUUUGGGGGGUAACCAGCUAGCUGCUGCUAGGCCUUUAUUCCUGGAAUUCUCGGGUGCCAA,0.249
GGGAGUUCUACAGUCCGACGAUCUUUCCAUAGUAUCACAUACUAUUAUUUAGUUGUUUACAAGACUCCAAUUUGAAUUCAGGAUUACAGUGCUCCUUUCAUUCUUUCAAACAGAUAACAUAAAAGUUCUGUUAUGGAAUUCUCGGGUGCCAA,0.34
